Experimental data gathered from unrelated publications.
A part holds a random share of what one study measured. Changes are numbered by the printed parent chain.

Series 1 — technique: aptamer microarray, sandwich; molecule type: DNA with 2'F-ANA; sample: in vitro; tested at: 200 nM; together with: Cy3 exosite-II aptamer, 400 nM; direction: higher = stronger binding; sequence: GGTTGGTGTGGTTGG
Target: Prothrombin, mature alpha-thrombin (F2, Homo sapiens, UniProt P00734)
Setting: whole 15-mer aptamer, many near background
Modification	mean fluorescence intensity
2'F-ANA at 1 3 4 9 10 11 13 15	56.6 a.u.
2'F-ANA at 1 3 5 6 7 8 10 11 13 15	48.8 a.u.
2'F-ANA at 2 3 6 7 10 11 12 14 15	237 a.u.
2'F-ANA at 2 3 4 5 7 8 9 13 15	61.3 a.u.
2'F-ANA at 1 2 3 5 6 7 8 10 11 14	49.3 a.u.
2'F-ANA at 2 5 8 10 13 14 15	46.9 a.u.
2'F-ANA at 2 4 7 8 12 13	526 a.u.
2'F-ANA at 1 4 7 8 11 12 14 15	61.9 a.u.
2'F-ANA at 2 3 4 5 6 9 10 12	60.7 a.u.
2'F-ANA at 2 3 4 6 9 10 11 12 13 15	195 a.u.
2'F-ANA at 1 3 4 7 9 10 11 12 15	77 a.u.
2'F-ANA at 2 4 7 9 12 13 14 15	113 a.u.
2'F-ANA at 2 3 7 8 9 11 15	827 a.u.
2'F-ANA at 2 4 7 11 12	563 a.u.
2'F-ANA at 3 4 5 6 8 9 12 15	198 a.u.
2'F-ANA at 2 3 4 6 8 9 10 15	192 a.u.
2'F-ANA at 6 8 9 12 13 15	579 a.u.
2'F-ANA at 4 7 8 10 12 14	136 a.u.
2'F-ANA at 2 4 5 8 9 11 12	135 a.u.
2'F-ANA at 1 3 8 12 14	140 a.u.
2'F-ANA at 1 2 3 8 10 12 13 14	50.3 a.u.
2'F-ANA at 4 5 9 10 12	55.5 a.u.
2'F-ANA at 1 7 10 11 12 14	51.8 a.u.

Series 2 — target: CCNB1, cyclin fold, Cln2 fusion (human); technique: yeast growth competition, sequencing; sample: yeast; setting: strong parent motif; reference: not given; direction: higher = stronger binding
Parent: E2F1 docking peptide (human); PPVKRRLDFETDH
Substitution	normalised enrichment score
T11V	4.98
R5Q	3.03
L7W	0.441
R6L	1.79
F9W	2.51
K4W	3.46
P2G	5.19
L7H	0.505
K4N	5.05
R6D	0.06
R6C	4.11
P2K	4.79
E10V	4.05
E10T	4.73
D8S	4.68
D12G	5.12
T11L	4.91
T11M	5.11
D8I	4.15
R5K	4.16
D12Q	4.78

Series 3 — target: BATF3, bZIP domain (human); technique: DHFR protein complementation; sample: yeast; reference: wild-type JUN-FOS pair; direction: higher = stronger binding
Setting: single substitutions, most at no-binding floor
Parent: JUN, bZIP domain (human); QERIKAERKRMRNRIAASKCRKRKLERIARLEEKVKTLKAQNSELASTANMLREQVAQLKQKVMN; partner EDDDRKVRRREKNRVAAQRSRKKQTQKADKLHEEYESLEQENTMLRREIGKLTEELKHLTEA
Substitution	binding fitness [natural log]
R30Y	0.126
E33D	0.214
A29N	0.171
E54Q	-0.0732
K34D	0.233
E33S	0.14
L31T	0.187
L52P	-0.885
M51A	0.266
E32Y	0.0833
N42G	-0.0423
T37K	0.244
A40L	0.137
R53I	-0.0455
L31I	0.244
A29S	0.134

Series 4 — technique: DHFR PCA, deep sequencing; sample: yeast; together with: (+)-ABA 0.032 µM; reference: wild-type fitted maximum; direction: higher = stronger binding
Target: ABI1, truncated, D143A, DHFR fusion (Arabidopsis thaliana)
Setting: methotrexate growth selection, single substitutions
Parent: PYL1, truncated, DHFR fusion (Arabidopsis thaliana); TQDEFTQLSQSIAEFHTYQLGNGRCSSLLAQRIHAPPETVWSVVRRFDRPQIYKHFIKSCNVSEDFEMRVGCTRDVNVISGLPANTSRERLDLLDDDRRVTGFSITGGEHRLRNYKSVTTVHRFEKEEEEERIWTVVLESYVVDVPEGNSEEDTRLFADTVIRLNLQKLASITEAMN
Substitution	relative binding score
V43K	-1.09%
E38F	-5.74%
R99T	-0.383%
V137Y	3.4%
A175M	14.8%
F103A	-1.08%
S140Y	5.55%
G71V	0.0278%
G23L	1.64%
R163C	-4.45%
V142R	-1.33%
T119A	0.309%
T119S	-0.36%
F157T	4.46%
I79W	19.5%
S140R	4.37%
V118L	2.49%
F103K	-3.82%
C60S	-0.00322%
R123Q	69.9%
V121S	-1.12%
Q167S	11.6%
Y53F	-0.659%
G81W	4.01%
G107R	5.93%

Series 5 — technique: RNA Bind-n-Seq; molecule type: RNA; sample: in vitro; tested at: 200 nM; setting: whole 134-nt RNA, ends assumed; together with: 150 mM LiCl; reference: input library; direction: higher = stronger binding; each molecule: 7-deaza-guanosine replaces G
Target: Fragile X messenger ribonucleoprotein 1, C-terminal low-complexity region (Fmr1, Mus musculus, UniProt P35922)
Shared flanks, not repeated: GGGAGUUCUACAGUCCGACGAUC … UGGAAUUCUCGGGUGUCAAGG
Sequence	log2 enrichment
AGUCCUGUGCUACACAUCGUAUGUACCGAAUCGGGUUUUUGGUUUUUGGGUUUUUGGAAAGUAUUAUGUUACGCCGUUCGGAUCUGCACU	-2.07
GUCCUGUGCUACACAUCGUAUGUACCGAAUCGGGGAAAAAGGGGAAAAAGGAAAAAGGGAAAGUAUUAUGUUACGCCGUUCGGAUCUGCA	0.568
AGUCCUGUGCUACACAUCGUAUGUACCGAAUCGGUUUUUGGUUUUUGGGGUUUUUGGAAAGUAUUAUGUUACGCCGUUCGGAUCUGCACU	-1.98
CCUCAAGUCCUGUGCUACACAUCGUAUGUACCGAAUCGGCCGGGCCGGGCCGGAAAGUAUUAUGUUACGCCGUUCGGAUCUGCACUUCCA	-0.144
GUCCUGUGCUACACAUCGUAUGUACCGAAUCGGAAAAAGGGGAAAAAGGGAAAAAGGGAAAGUAUUAUGUUACGCCGUUCGGAUCUGCAC	0.258
UCCUCAAGUCCUGUGCUACACAUCGUAUGUACCGAAUCGGUGGUGGUUUGGAAAGUAUUAUGUUACGCCGUUCGGAUCUGCACUUCCAGC	0.218
UGGGAGGUGGAUUUUGUUUAUUUUUUUAGCUCAUUUCCAGGGGUGGGAAUUUUUUUGUAAUAUGUGUCAUGAAUAAAGUUGUUUUUGAAA	0.0884
UCACUUUAGAGGAGGAUCUGAUGGAUAUGGCAGUGGACGUGGAUUUGGGGAUGGCUAUAAUGGGUAUGGAGGAGGACCUGGAGGUGGCAA	0.393
AAGUCCUGUGCUACACAUCGUAUGUACCGAAUCGGGUUUUUGGGUUUGGGUUUGGGAAAGUAUUAUGUUACGCCGUUCGGAUCUGCACUU	-1.8
UGGGAGGUGGAUUUUGUUUAUUUUUUUAGCUCAUUUCCAGGGGUGGGAAUUUUUUUUUAAUAUGUGUCAUGAAUAAAGUUGUGUUUGAAA	0.513
CUCAAGUCCUGUGCUACACAUCGUAUGUACCGAAUCGGGAAGGGAAGGAAGGGGAAAGUAUUAUGUUACGCCGUUCGGAUCUGCACUUCC	-0.496

Repeated from above (series 3):
Substitution	binding fitness [natural log]
E32Y	0.0833
N42G	-0.0423
E33S	0.14
A40L	0.137
A29N	0.171
T37K	0.244
L52P	-0.885
E54Q	-0.0732
M51A	0.266
R53I	-0.0455
R30Y	0.126
A29S	0.134
L31I	0.244
K34D	0.233
E33D	0.214
L31T	0.187
